Published values gathered from unrelated publications.
Compare with care: the assays were run in different laboratories. ± marks the error that the study gave.

Compound | assay | test system | conditions | scale | quantity | result
CCCC[C@H](NC(=O)[C@@H](NC(=O)[C@H](CC(=O)O)NC(=O)[C@H](CCC(N)=O)NC(=O)[C@H](CC(C)C)NC(=O)[C@H](CC(C)C)NC(=O)[C@H](CCCN)NC(=O)[C@H](CCCNC(=N)N)NC(=O)[C@H](C)NC(=O)[C@H](CO)NC(=O)[C@H](CC(C)C)NC(=O)[C@H](CCC(N)=O)NC(=O)[C@H](CC)NC(=O)[C@H](CC(C)C)NC(=O)[C@@H](NC(=O)[C@H](CCCN)NC(=O)[C@H](CCCNC(=N)N)NC(=O)[C@H](Cc1ccc(O)cc1)NC(=O)[C@H](CO)NC(=O)[C@H](CCC(N)=O)NC(=O)[C@@H](NC(=O)[C@H](Cc1ccccc1)NC(=O)[C@@H](NC(=O)[C@H](C)NC(=O)[C@H](CC(=O)O)NC(=O)[C@H](C)NC(=O)[C@H](Cc1ccc(O)cc1)NC)[C@@H](C)CC)[C@@H](C)O)C(C)C)[C@@H](C)CC)C(=O)N[C@@H](CC(=O)O)C(=O)NCCCCNC(=N)N | GH release, ELISA | male rat, anaesthetised, serum | intravenous, 1 µg/kg, 5 min | – | serum GH level | 632 ± 110 ng/mL
COc1ccc2c(c1)c(CC(=O)OCC(=O)OC(C)(C)C)c(C)n2C(=O)c1ccc(Cl)cc1 | acetic acid writhing test | BALB/c mouse | intraperitoneal, 10 mg/kg | baseline: negative control | analgesia | 56%
Nn1c(S)nnc1CCN(c1ccccc1)S(=O)(=O)c1ccccc1 | tail flick, radiant heat | rat | 200 mg/kg | – | analgesic protection | 113%
COc1c2c(cc3oc(C)cc(=O)c13)O[C@H](C(C)(C)O[C@@H]1O[C@H](CO)[C@@H](O)[C@H](O)[C@H]1O)C2 | analgesic effect | Kunming mouse, female | oral, 2 mg/kg, 0 h, 55 °C, before dosing, 30 s cut-off | – | hot plate latency | 8.88 ± 1.35 s
C=CC(=O)N1C[C@H](C)N(c2nc(OC[C@@]34CCCN3C[C@H](F)C4)nc3c(F)c(-c4ccc(F)c5sc(N)c(C#N)c45)c(C(F)(F)F)cc23)C[C@H]1C | – | mouse, KCP lung tumour model | oral, 10 mg/kg once daily, 42 days | – | tumour regression | 56%
CCCC[C@H](NC(=O)[C@@H](NC(=O)[C@H](CC(=O)O)NC(=O)[C@H](CCC(N)=O)NC(=O)[C@H](CC(C)C)NC(=O)[C@H](CC(C)C)NC(=O)[C@H](CCCN)NC(=O)[C@H](CCCNC(=N)N)NC(=O)[C@H](C)NC(=O)[C@H](CO)NC(=O)[C@H](CC(C)C)NC(=O)[C@H](CCC(N)=O)NC(=O)[C@H](CC)NC(=O)[C@H](CC(C)C)NC(=O)[C@@H](NC(=O)[C@H](CCCN)NC(=O)[C@H](CCCNC(=N)N)NC(=O)[C@H](Cc1ccc(O)cc1)NC(=O)[C@H](CO)NC(=O)[C@H](CCC(N)=O)NC(=O)[C@@H](NC(=O)[C@H](Cc1ccccc1)NC(=O)[C@@H](NC(=O)[C@H](C)NC(=O)[C@H](CC(=O)O)NC(=O)[C@H](C)NC(=O)CCc1ccc(O)cc1)[C@@H](C)CC)[C@@H](C)O)C(C)C)[C@@H](C)CC)C(=O)N[C@@H](CC(=O)O)C(=O)NCCCCNC(=N)N | GH release, ELISA | male Sprague-Dawley rat, anaesthetised, serum | subcutaneous, 3 µg/kg, 0 min | – | serum GH level | 33.2 ± 2.8 ng/mL
CCCCCCCCCCCCCCc1sc(NC(=O)CN2CCC(O)CC2)nc1-c1ccccc1 | – | – | 0.1 mM, 1 h | – | DPPH radical scavenging | 29.8%
CC[C@H]1[C@@H](O)[C@@H]2[C@H](CC[C@]3(C)[C@@H]([C@H](C)CCOS(=O)(=O)[O-])CC[C@@H]23)[C@@]2(C)CC[C@@H](O)C[C@@H]12.[Na+] | histology | ob/ob NASH mouse model, liver | oral, 10 mg/kg once daily, before treatment, baseline of 8 week study, scale 0 to 2 | direction not given | ballooning score | 0.8 ± 0.1
CC(C)[C@H](CO)Nc1nc(Nc2ccc(C(=O)NCCNS(=O)(=O)c3cccc4c(N(C)C)cccc34)c(Cl)c2)c2ncn(C(C)C)c2n1 | – | ND2-SmoA1 mice, medulloblastoma tumour | dose not given | – | nuclear cyclin D1-positive cells | 13.8 ± 4%
O=c1c(OCc2ccccc2)c(-c2ccc([N+](=O)[O-])cc2)oc2ccccc12 | – | diabetic rat | 7.5 mg/kg, 28 days, p-nitrophenyl β-glucoside induced | – | serum HDL cholesterol | 41 ± 1.89 mg/dL
O=C1CCN(Cc2ccccc2)CC1C(C[N+](=O)[O-])c1ccccc1 (stereo not drawn) | – | mouse acetic acid writhing | 25 mg/kg, with: haloperidol 1 mg/kg pretreatment | – | analgesic activity | 17.2%
C[C@H](NC(=O)CNC(=O)[C@H](CCC(=O)O)NC(=O)[C@H](CCC(=O)O)NC(=O)[C@H](CC(=O)O)NC(=O)[C@@H]1CCCN1C(=O)[C@H](Cc1ccccc1)NC(=O)[C@H](CS)NC(=O)[C@H](Cc1ccc(O)cc1)NC(=O)CCCNC(=O)CNC(=O)CNC(=O)[C@@H](C)NC(=O)CN)C(=O)N[C@@H](CS)C(=O)N[C@@H](Cc1ccc(O)cc1)C(N)=O [technetium-99m labelled] | SPECT | BALB/c nude mouse, SKBR3 tumour | intravenous, 37 MBq, 240 min | – | tumour to non-tumour ratio | 3.49
CC[C@H](C)[C@H](NC(=O)[C@H](C)NC(=O)[C@H](CS)NC(=O)[C@@H]1CCCN1)C(=O)N[C@@H](Cc1c[nH]c2ccccc12)C(=O)N[C@@H](Cc1ccccc1)C(=O)O | – | C57BL/6 mice with oxygen-induced retinopathy | intravitreal, 30 µg, P15 to P17 | – | retinal vascular layer thickness | 44 ± 3.9 µm
O=C(O)c1ccc(/C=C2\SC(=S)N(Cc3cccc(C(F)(F)F)c3)C2=O)cc1 | – | wild-type mouse, high-fat diet, blood | 2.5 mg/kg once daily, 6 weeks | – | fasting blood glucose | decreased
CCCC[C@H](NC(=O)[C@@H](NC(=O)[C@H](CC(=O)O)NC(=O)[C@H](CCC(N)=O)NC(=O)[C@H](CC(C)C)NC(=O)[C@H](CC(C)C)NC(=O)[C@H](CCCN)NC(=O)[C@H](CCCNC(=N)N)NC(=O)[C@H](C)NC(=O)[C@H](CO)NC(=O)[C@H](CC(C)C)NC(=O)[C@H](CCC(N)=O)NC(=O)[C@H](CC)NC(=O)[C@H](CC(C)C)NC(=O)[C@@H](NC(=O)[C@H](CCCN)NC(=O)[C@H](CCCNC(=N)N)NC(=O)[C@H](Cc1ccc(O)cc1)NC(=O)[C@H](CO)NC(=O)[C@H](CCC(N)=O)NC(=O)[C@@H](NC(=O)[C@H](Cc1ccccc1)NC(=O)[C@@H](NC(=O)[C@H](C)NC(=O)[C@H](CC(=O)O)NC(=O)[C@H](C)NC(=O)CCc1ccc(O)cc1)[C@@H](C)CC)[C@@H](C)O)C(C)C)[C@@H](C)CC)C(=O)N[C@@H](CC(=O)O)C(=O)N[C@@H](CCCNC(=N)N)C(=O)NC | GH release, ELISA | male Sprague-Dawley rat, anaesthetised, serum | subcutaneous, 3 µg/kg, 30 min | – | serum GH level | 135 ± 10.8 ng/mL
COc1c2c(cc3oc(COC4OC(CO)C(O)C(O)C4O)cc(=O)c13)OC(C(C)(C)O)C2 (stereo not drawn) | analgesia | mouse | oral, 4 mg/kg, 1 h | – | hot plate latency | 11.5 ± 1.51 s
Cc1ccc(CN2C(=O)/C(=N\c3ccc(Cl)cc3Br)c3ccccc32)cc1 | flow cytometry | mouse tumour model, tumour tissue | ip, 20 mg/kg | – | M2 macrophages in TAMs | 14.2%
CC(=O)Nc1cccc(OCc2nnc(SCc3ccccc3C)o2)c1 | forced swimming test | mice | 40 mg/kg, 0.5 h | baseline: control | immobility duration decrease | 15.6%
CN(C)c1ccc(-c2oc3ccccc3c(=O)c2OCc2ccccc2)cc1 | – | diabetic rat | 7.5 mg/kg, 28 days, p-nitrophenyl β-glucoside induced | – | serum HDL cholesterol | 48 ± 1.99 mg/dL
CCCCCCCCCCCCCCCC(=O)N[C@@H](CCC(=O)NCCCC[C@H](NC(=O)[C@H](CC(=O)O)NC(=O)[C@H](CO)NC(=O)[C@@H](NC(=O)[C@H](Cc1ccccc1)NC(=O)[C@@H](NC(=O)CNC(=O)[C@H](CCC(N)=O)NC(=O)[C@H](CO)NC(=O)[C@@H](N)Cc1c[nH]cn1)[C@@H](C)O)[C@@H](C)O)C(=O)N[C@@H](CO)C(=O)N[C@@H](CCC(=O)O)C(=O)N[C@@H](Cc1ccc(O)cc1)C(=O)N[C@@H](CC(C)C)C(=O)N[C@@H](CC(=O)O)C(=O)N[C@@H](CO)C(=O)N[C@@H](CCC(=O)O)C(=O)N[C@@H](CCCNC(=N)N)C(=O)N[C@@H](C)C(=O)N[C@@H](CCCNC(=N)N)C(=O)N[C@@H](CC(=O)O)C(=O)N[C@@H](Cc1ccccc1)C(=O)N[C@H](C(=O)N[C@@H](C)C(=O)N[C@@H](Cc1c[nH]c2ccccc12)C(=O)N[C@@H](CC(C)C)C(=O)N[C@@H](CCC(=O)O)C(=O)N[C@@H](C)C(=O)NCC(=O)NCC(=O)O)C(C)C)C(=O)O | – | male cynomolgus monkey | subcutaneous, 8 nmol/kg/day for 8 weeks, day 57 | baseline: starting body weight | body weight loss | 5%
CC(=O)[O-].O.[Cu+2].[O-]c1ccc(Br)cc1C=NCCN1CCOCC1 | superoxide scavenging | – | 240 µM | – | inhibition | 71.6%
COc1ccc(C(=O)CSc2nnc(COCCn3c([N+](=O)[O-])cnc3C)o2)cc1F | – | – | 100 µg/mL, 45 min | – | DPPH scavenging | 71.98 ± 0.17%
O=c1c(OCc2ccccc2)c(-c2ccc(Cl)cc2)oc2ccccc12 | – | diabetic rat | 7.5 mg/kg, p-nitrophenyl β-glucoside induced | – | serum alkaline phosphatase | 182 IU
CCCOC(=O)Cc1c(C)n(C(=O)c2ccc(Cl)cc2)c2ccc(OC)cc12 | – | BALB/c mice, acetic acid writhing | intraperitoneal, 10 mg/kg, 20 min count | – | writhing count | 15.5 ± 1.06

Some of these lines once more:
Compound | assay | test system | conditions | scale | quantity | result
CC[C@H](C)[C@H](NC(=O)[C@H](C)NC(=O)[C@H](CS)NC(=O)[C@@H]1CCCN1)C(=O)N[C@@H](Cc1c[nH]c2ccccc12)C(=O)N[C@@H](Cc1ccccc1)C(=O)O | – | C57BL/6 mice with oxygen-induced retinopathy | intravitreal, 30 µg, P15 to P17 | – | retinal vascular layer thickness | 44 ± 3.9 µm
O=C(O)c1ccc(/C=C2\SC(=S)N(Cc3cccc(C(F)(F)F)c3)C2=O)cc1 | – | wild-type mouse, high-fat diet, blood | 2.5 mg/kg once daily, 6 weeks | – | fasting blood glucose | decreased
CCCC[C@H](NC(=O)[C@@H](NC(=O)[C@H](CC(=O)O)NC(=O)[C@H](CCC(N)=O)NC(=O)[C@H](CC(C)C)NC(=O)[C@H](CC(C)C)NC(=O)[C@H](CCCN)NC(=O)[C@H](CCCNC(=N)N)NC(=O)[C@H](C)NC(=O)[C@H](CO)NC(=O)[C@H](CC(C)C)NC(=O)[C@H](CCC(N)=O)NC(=O)[C@H](CC)NC(=O)[C@H](CC(C)C)NC(=O)[C@@H](NC(=O)[C@H](CCCN)NC(=O)[C@H](CCCNC(=N)N)NC(=O)[C@H](Cc1ccc(O)cc1)NC(=O)[C@H](CO)NC(=O)[C@H](CCC(N)=O)NC(=O)[C@@H](NC(=O)[C@H](Cc1ccccc1)NC(=O)[C@@H](NC(=O)[C@H](C)NC(=O)[C@H](CC(=O)O)NC(=O)[C@H](C)NC(=O)CCc1ccc(O)cc1)[C@@H](C)CC)[C@@H](C)O)C(C)C)[C@@H](C)CC)C(=O)N[C@@H](CC(=O)O)C(=O)N[C@@H](CCCNC(=N)N)C(=O)NC | GH release, ELISA | male Sprague-Dawley rat, anaesthetised, serum | subcutaneous, 3 µg/kg, 30 min | – | serum GH level | 135 ± 10.8 ng/mL
